Assay results pooled from the literature.
Each line is one published result; not all experiments were run side by side. ± gives the spread as reported.

SMILES | test | system | setting | logD
O=C(CN1CN(c2ccccc2)C2(CCN(C(=O)c3ccc4[nH]ncc4n3)CC2)C1=O)NCC(F)(F)F | – | – | pH 7.4 | 2.11
COc1cc2c(cc1O[11CH3])CCN(C(C)CCc1ccc(O)cc1)C2 (racemic) | shake-flask | n-octanol/phosphate buffer | pH 7.4 | 1.34
COC(=O)CN1CCN(Cc2cc(-c3nc4ccccc4s3)cc(OC)c2O)CCN(Cc2cc(-c3nc4ccccc4s3)cc(OC)c2O)CC1 | fluorescence intensity | – | – | 1.2 ± 0.1
CCOC(=O)C(CC)(CCCSCCOCCN)NC(=O)c1ccc(C2CC2)c(Cc2ccc(F)cc2)n1 (stereo not drawn) | – | – | – | 2.7
Cc1cc(C(=O)N[C@@H](CC(=O)NC(C)(C)C)C(=O)NCCNC(=O)c2cc(-c3ccccc3)ccn2)no1 | – | – | pH 7.4 | 2.68
CCCCCCCCCCCCCCCCCC(=O)[O][Pt-2]1([OH])([Cl])([NH+]=C(CC)N(C)CCNc2c3ccccc3[nH+]c3ccccc23)[NH2+]CCC[NH2+]1.O=[N+]([O-])[O-].O=[N+]([O-])[O-] | shake-flask | 1-octanol/water | pH 7 | 0.57 ± 0.02
COC(=O)Nc1cc(C(=O)Nc2ccc(CN)cc2)cc2ccc(C(=N)N)cc12.O=C(O)C(F)(F)F.O=C(O)C(F)(F)F | – | octanol/buffer | 67 µM, pH 7.4 | < -1.5
O=c1[nH]cccc1[C@H](CO)Nc1nc(N2C[C@@H]3C[C@H]2CO3)c2cc(-c3ccccc3)sc2n1 | chromatographic | – | – | 3.5 ± 0.1
N#Cc1cccc(N2CN(CC(=O)NCC(F)(F)F)C(=O)C23CCN(C(=O)c2cnc4[nH]ncc4c2)CC3)c1 | – | – | pH 7.4 | 1.88
[Cl-].[Cl-].[Ru+2].c1cc(-c2ccc3cccnc3n2)nc(-c2ccc3cccnc3n2)c1.c1ccc2cc3nc4c5cccnc5c5ncccc5c4nc3cc2c1 | – | 1-octanol/PBS | pH 7.4 | 1.22 ± 0.055
CCC(=[NH+][Pt-2]1([OH])([OH])([Cl])[NH2+]CCC[NH2+]1)N(C)CCNc1c2ccccc2[nH+]c2ccccc12.O=[N+]([O-])[O-].O=[N+]([O-])[O-] | shake-flask | 1-octanol/water | pH 7 | -1.26 ± 0.06
O=C(CN1CN(c2ccccc2)C2(CCN(C(=O)c3ccc4[nH]ncc4c3)CC2)C1=O)Nc1ccccn1 | – | – | pH 7.4 | 2.63
N=C(N)NC(=O)c1nc(Cl)c(NCc2cc(Cl)cc(Cl)c2)nc1N.O=C(O)C(F)(F)F | – | octanol/buffer | 67 µM, pH 7.4 | 1.94
CNC(=O)C1CCCN(C(=O)C2CC3CCC2N3C(=O)[C@@H]2C[C@@H](O)CN2C(=O)NCc2cccc(Cl)c2F)C1 (mixture of isomers) | shake flask, octanol/buffer | – | pH 7.4 | 0.59
CCC(=[NH+][Pt-2]1([Cl])[NH2+]CCC[NH2+]1)N(C)CCNc1c2ccccc2[nH+]c2ccccc12.O=[N+]([O-])[O-].O=[N+]([O-])[O-] (stereo not drawn) | shake-flask | 1-octanol/0.9% NaCl | pH 5 | -1.39 ± 0.06
COc1cccc(OC)c1-c1cc(C(=O)NC2(C(=O)O)C3CC4CC(C3)CC2C4)nn1-c1ccc(C(=O)N(C)CCCN(C)C(=O)[C@H](CCCCNC(=O)[C@H](CC(C)C)NC(=O)C2OC2C(=O)O)NC(=O)CN2CCN(CC(=O)[O-])CCN(CC(=O)[O-])CCN(CC(=O)[O-])CC2)cc1C(C)C.[177Lu+3] (mixture of isomers) | – | n-octanol/buffer | pH 7.4, 177Lu-labelled | -2.05
CC[C@H](C)[C@H](NC(=O)C[C@H](NC(=O)CN1CCN2CCN(CC1)CC(=O)[O][Al]([18F])[O]C(=O)C2)C(=O)O)C(=O)N[C@H]1CCc2cccc3c2N(C1=O)[C@H](C(=O)NCc1cn[nH]n1)C3 | – | 1-octanol/PBS 0.1 M | pH 7.4 | -1.58 ± 0.16

SMILES | test | system | setting | logD
CC(C)C1=NCCc2ccc(NC(=O)c3cc(Br)c4cc(C(=N)N)ccc4c3)cc21.O=C(O)C(F)(F)F.O=C(O)C(F)(F)F | – | octanol/buffer | 67 µM, pH 7.4 | 1.24
COc1cc(-c2nc3ccccc3s2)cc(CN2CCN(C)CCN(Cc3cc(-c4nc5ccccc5s4)cc(OC)c3O)CC2)c1O | fluorescence intensity | – | – | 1.19 ± 0.05
COc1cccc(OC)c1-c1cc(C(=O)NC2(C(=O)O)C3CC4CC(C3)CC2C4)nn1-c1ccc(C(=O)N(C)CCOCCOCCN(C)C(=O)[C@H](CCCCNC(=O)[C@H](CC(C)C)NC(=O)C2OC2C(=O)O)NC(=O)CN2CCN(CC(=O)[O-])CCN(CC(=O)[O-])CCN(CC(=O)[O-])CC2)cc1C(C)C.[177Lu+3] (mixture of isomers) | – | n-octanol/buffer | pH 7.4, 177Lu-labelled | -2.14
CN1CCc2ccc(/C=C/c3ccc4cc(C(=N)N)ccc4c3)cc2C1C1CCCCC1.O=C(O)C(F)(F)F.O=C(O)C(F)(F)F (stereo not drawn) | – | octanol/buffer | 67 µM, pH 7.4 | 2.16
COc1cc(-c2nc3ccccc3s2)cc(CN2CCN(Cc3cc(-c4nc5ccccc5s4)cc(OC)c3O)CCN(C(C)C)CC2)c1O | fluorescence intensity | – | – | 1.3 ± 0.03
CCC(=[NH+][Pt-2]1([Cl])([O]C(C)=O)([O]C(C)=O)[NH2+]CCC[NH2+]1)N(C)CCNc1c2ccccc2[nH+]c2ccccc12.O=[N+]([O-])[O-].O=[N+]([O-])[O-] | shake-flask | 1-octanol/water | pH 7 | -1.36 ± 0.17
NS(=O)(=O)c1ccc(N/N=C2\C(=O)Nc3ccc(C(=O)NCCc4c[nH]cn4)cc32)cc1 | – | octanol/buffer | 67 µM, pH 7.4 | 1.41
CC(C)(C)c1cc(-c2ccc3cccnc3n2)nc(-c2ccc3cccnc3n2)c1.COc1ccncc1.[Cl-].[Cl-].[Ru+2].c1ccc2cc3nc4c5cccnc5c5ncccc5c4nc3cc2c1 | – | 1-octanol/PBS | pH 7.4 | -0.32 ± 0.017
CC1CN(C(C)CO)C(=O)c2cccc(N(C)C(=O)c3ccncc3)c2OC1CN(C)Cc1ccc(Oc2ccccc2)cc1 (stereo not drawn) | shake flask | 1-octanol/phosphate buffer | pH 7.4 | 3.75
Cl.N=C(N)c1ccc2cc(NS(=O)(=O)c3ccccc3)ccc2c1 | – | octanol/buffer | 67 µM, pH 7.4 | -0.63
CCC(=[NH+][Pt-2]1([Cl])([O]C(=O)CC(C)C)([O]C(=O)CC(C)C)[NH2+]CCC[NH2+]1)N(C)CCNc1c2ccccc2[nH+]c2ccccc12.O=[N+]([O-])[O-].O=[N+]([O-])[O-] | shake-flask | 1-octanol/0.9% NaCl | pH 5 | 0.27 ± 0.02
N=C(N)c1ccc2cc(C(=O)Nc3ccccc3)cc(-c3cn[nH]c3)c2c1.O=C(O)C(F)(F)F | – | octanol/buffer | 67 µM, pH 7.4 | 0.01
CN(CC(F)(F)F)C(=O)CN1CN(c2ccccc2)C2(CCN(C(=O)c3ccc4[nH]ncc4c3)CC2)C1=O | – | – | pH 7.4 | 2.66
CCOC(=O)[C@@](CC)(CCCSCCOCCOCCNC(=O)OC(C)(C)C)NC(=O)c1ccc(C2CC2)c(Cc2ccc(F)cc2)n1 | – | – | – | 2.5
C[C@@H](O)[C@H](NC(=O)c1ccc(C#CC#Cc2ccccc2)cc1)C(=O)NCC1(C)NC(=O)NC1=O (stereo partly drawn) | – | octanol/buffer | pH 7.4 | 3.96
Cn1ccc([C@H](CCO)Nc2nc(N3CCOCC3)c3cc(-c4ccccc4)sc3n2)n1 | chromatographic | – | – | 3.8

Some of these lines once more:
SMILES | test | system | setting | logD
CC1CN(C(C)CO)C(=O)c2cccc(N(C)C(=O)c3ccncc3)c2OC1CN(C)Cc1ccc(Oc2ccccc2)cc1 (stereo not drawn) | shake flask | 1-octanol/phosphate buffer | pH 7.4 | 3.75
Cl.N=C(N)c1ccc2cc(NS(=O)(=O)c3ccccc3)ccc2c1 | – | octanol/buffer | 67 µM, pH 7.4 | -0.63
